Results collected from several papers.
Numbered parts are unrelated; each lists some results of a single study.

Study 1 — technique: protein-binding microarray; molecule type: double-stranded DNA, one strand shown; medium: in vitro; tested at: 2200 nM top; notes: 60-bp whole probe; added: salmon DNA 0.4 mg/ml; relative to: random background probes; direction: higher = stronger binding
Target: Interferon regulatory factor 7, full length, phosphomimetic (IRF7, Homo sapiens, UniProt Q92985, residues 1-503, S471D/S472D/S475D/S476D/S477D/S483D/S484D/S487D)
Target sequence (chain): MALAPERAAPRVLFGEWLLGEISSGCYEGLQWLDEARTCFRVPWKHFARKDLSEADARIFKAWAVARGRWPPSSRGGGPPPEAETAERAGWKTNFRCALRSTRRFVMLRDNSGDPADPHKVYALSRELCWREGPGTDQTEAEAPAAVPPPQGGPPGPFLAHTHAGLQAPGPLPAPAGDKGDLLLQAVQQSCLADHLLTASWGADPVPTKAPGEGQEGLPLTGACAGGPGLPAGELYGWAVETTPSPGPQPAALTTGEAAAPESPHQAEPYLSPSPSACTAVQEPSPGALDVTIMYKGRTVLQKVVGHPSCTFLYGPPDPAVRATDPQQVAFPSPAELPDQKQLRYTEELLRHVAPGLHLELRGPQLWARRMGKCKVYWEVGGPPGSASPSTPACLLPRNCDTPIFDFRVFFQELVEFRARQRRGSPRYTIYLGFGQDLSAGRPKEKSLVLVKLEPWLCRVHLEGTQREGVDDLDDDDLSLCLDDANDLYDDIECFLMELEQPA
Oligonucleotide	fitted relative affinity
GCCTAGCACTCATGCCTATTTTTCACACTGTGCTAGGTCTTGATTCGCTTGACGCTGCTG	1.56 z-score
GCCTAGCACTCTCCTCCCCCTCTGCCACCGTGCTAGGTCTTGATTCGCTTGACGCTGCTG	0.431 z-score
GCCTAGCACTTAGATATCATTATCGATTAGTGCTAGGTCTTGATTCGCTTGACGCTGCTG	0.222 z-score
GCCTAGCACGACGATTGCGGGTTTCGAGACGTGCTAGTCTTGATTCGCTTGACGCTGCTG	1.89 z-score

Study 2 — technique: protein binding microarray; molecule type: double-stranded DNA, one strand shown; medium: in vitro; tested at: not given; relative to: not given; direction: higher = stronger binding
Target: Histone acetyltransferase KAT6A, both winged helices, GST fusion (KAT6A, Homo sapiens, UniProt Q92794, residues 1-181)
Notes: 8-mer, flanks averaged, mean of 2 arrays, mostly near background
Construct (chain): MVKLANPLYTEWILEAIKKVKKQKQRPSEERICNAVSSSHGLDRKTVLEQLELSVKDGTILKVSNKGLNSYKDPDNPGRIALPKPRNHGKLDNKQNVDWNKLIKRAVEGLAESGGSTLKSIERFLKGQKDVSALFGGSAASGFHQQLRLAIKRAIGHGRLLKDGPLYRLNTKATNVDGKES
Oligonucleotide	E-score
AGTATCAA	-0.065
CTGCGCGA	0.258
GAGTCCCC	-0.255

Study 3 — technique: universal PBM; molecule type: double-stranded DNA, one strand shown; medium: in vitro; tested at: 600 nM; direction: higher = stronger binding
Target: Sal-like protein 4, full length isoform A (SALL4, Homo sapiens, UniProt Q9UJQ4, residues 1-1053)
Chain of UniProt Q9UJQ4 (whole entry, looked up): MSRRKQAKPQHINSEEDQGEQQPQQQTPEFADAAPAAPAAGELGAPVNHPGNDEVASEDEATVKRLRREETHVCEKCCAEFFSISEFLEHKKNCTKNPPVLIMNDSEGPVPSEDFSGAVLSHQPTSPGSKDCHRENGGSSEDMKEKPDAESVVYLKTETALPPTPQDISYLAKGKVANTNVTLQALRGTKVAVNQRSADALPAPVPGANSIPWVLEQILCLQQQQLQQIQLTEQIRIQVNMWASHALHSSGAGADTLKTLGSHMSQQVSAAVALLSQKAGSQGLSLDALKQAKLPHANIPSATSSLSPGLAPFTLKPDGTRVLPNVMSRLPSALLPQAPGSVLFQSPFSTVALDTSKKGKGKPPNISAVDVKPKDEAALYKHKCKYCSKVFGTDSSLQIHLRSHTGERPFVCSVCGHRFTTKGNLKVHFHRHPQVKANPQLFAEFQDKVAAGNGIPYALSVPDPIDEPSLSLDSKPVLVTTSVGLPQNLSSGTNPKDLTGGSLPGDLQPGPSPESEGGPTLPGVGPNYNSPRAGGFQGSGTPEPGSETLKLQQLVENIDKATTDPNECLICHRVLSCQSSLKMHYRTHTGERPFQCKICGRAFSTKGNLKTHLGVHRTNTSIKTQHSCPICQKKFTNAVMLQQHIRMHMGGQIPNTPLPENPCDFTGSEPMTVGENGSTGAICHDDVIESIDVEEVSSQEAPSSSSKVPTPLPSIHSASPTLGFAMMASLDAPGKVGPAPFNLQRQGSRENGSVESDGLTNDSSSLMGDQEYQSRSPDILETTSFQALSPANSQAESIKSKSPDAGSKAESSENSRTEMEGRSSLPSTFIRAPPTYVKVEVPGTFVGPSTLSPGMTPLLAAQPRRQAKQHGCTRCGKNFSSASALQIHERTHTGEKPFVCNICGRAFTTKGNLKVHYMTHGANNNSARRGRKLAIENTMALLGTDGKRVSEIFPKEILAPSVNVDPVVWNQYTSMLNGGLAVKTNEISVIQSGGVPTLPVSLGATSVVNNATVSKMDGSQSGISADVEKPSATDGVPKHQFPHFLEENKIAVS
Notes: 8-mer, flanks averaged, mean of replicates
Oligonucleotide	E-score
AGGGACAA	-0.123
AGATCCTC	-0.0878
AGCTGTGA	-0.00754

Single results of other studies
Substance	target	test	test system	conditions	scale	endpoint	value
PhoQ, residues 284 288 289 292 302 303 NLSRDF	PhoP, residues 12 14 15 18 19 SGWQI (Escherichia coli, UniProt P23836)	Sort-seq, measured: YFP reporter	E. coli	PhoQ-PhoP variant library, added: 10 µM Mg2+	relative to: high Mg2+ state, higher = stronger signaling	fold induction	13.7
